{"data": "Assay results of several laboratories", "CFTR": "Cystic fibrosis transmembrane conductance regulator (CFTR, Homo sapiens, UniProt P13569)", "Melanocortin receptor 5": "Melanocortin receptor 5 (Mus musculus, UniProt P41149)", "ESRRG": "Estrogen-related receptor gamma (ESRRG, Homo sapiens, UniProt P62508)", "B1": "R-spondin 1 (human, recombinant); chain SRGIKGKRQRRISAEGSQACAKGCELCSEVNGCLKCSPKLFILLERNDIRQVGVCLPSCPPGYFDARNPDMNKCIKCKIEHCEACFSHNFCTKCKEGLYLHKGRCYPACPEGSSAANGTMECSSPAQCEMSEWSPWGPCSKKQQLCGFRRGSEERTRRVLHAPVGDHAACSDTKETRRCTVRRVPCPEGQKRRKGGQGRRENANRNLARKESKEAGAGSRRRKGQQQQQQQGTVGPLTSAGPA", "note": "± marks the error that the study gave."}
{"Substance": "CC1=CC(=O)c2ccccc2C1=O", "target": "UbiA prenyltransferase domain-containing protein 1 (UBIAD1, Homo sapiens, UniProt Q9Y5Z9, G186R)", "test": "vitamin K-dependent carboxylation, substrate", "setting": "cell-based, with: FIXgla-PC reporter", "EC50": "221 nM"}
{"Substance": "COc1c(Nc2cc(C(F)(F)F)cc(C(F)(F)F)c2)c(=O)c1=O", "target": "CD209 antigen (CD209, Homo sapiens, UniProt Q9NNX6)", "test": "binding, grating-coupled interferometry", "test system": "mannose-PEG3 chip", "setting": "overnight, Tris quench", "EC50": "100000 nM"}
{"Substance": "Cn1c(=O)c(-c2cc([N+](=O)[O-])ccc2N)nc2ccccc21", "target": "CFTR", "test": "channel activation, activator, YFP halide sensor", "test system": "FRT cells", "setting": "approximate, with: 125 nM forskolin", "EC50": "~10000 nM"}
{"Substance": "CCCC[C@H](NC(=O)[C@H](CO)NC(=O)[C@H](Cc1ccc(O)cc1)NC(=O)[C@H](CO)NC(C)=O)C(=O)N[C@@H](CCC(=O)O)C(=O)N[C@@H](Cc1c[nH]cn1)C(=O)N[C@H](Cc1ccccc1)C(=O)N[C@@H](CCCNC(=N)N)C(=O)N[C@@H](C)C(=O)NCC(=O)N[C@@H](CCCCN)C(=O)N1CCC[C@H]1C(=O)N[C@H](C(N)=O)C(C)C", "target": "Melanocortin receptor 5", "EC50": "31 ± 3.34 nM"}
{"Substance": "Nc1nc2ccc3cc4ccccc4cc3c2s1", "target": "Small conductance calcium-activated potassium channel protein 3 (Kcnn3, Mus musculus, UniProt P58391)", "test": "channel current, activator, patch clamp", "test system": "mouse carotid endothelial cells, KCa3.1 knock-out", "setting": "0.25 µM free Ca2+", "EC50": "1500 nM"}
{"Substance": "CCCC[C@H](NC(=O)[C@H](CO)NC(=O)[C@H](Cc1ccc(O)cc1)NC(=O)[C@H](CO)NC(C)=O)C(=O)N[C@@H](C)C(=O)N[C@@H](Cc1c[nH]cn1)C(=O)N[C@H](Cc1ccccc1)C(=O)N[C@@H](CCCNC(=N)N)C(=O)N[C@@H](Cc1c[nH]c2ccccc12)C(=O)NCC(=O)N[C@@H](CCCCN)C(=O)N1CCC[C@H]1C(=O)N[C@H](C(N)=O)C(C)C", "target": "Melanocortin receptor 5", "EC50": "0.25 ± 0.012 nM"}
{"Substance": "Cc1[nH]c2ccccc2c1CCNCc1ccc(/C=C/C(=O)NO)cc1", "target": "MBLAC2 (Homo sapiens, UniProt Q68D91)", "test": "palmitoyl-CoA hydrolysis, inhibitor", "setting": "with: [3H]palmitoyl-CoA", "EC50": "< 10 nM"}
{"Substance": "CCCCC[C@@](C)(O)[C@H]1CC[C@H]2[C@@H]3CC=C4C[C@@H](O)CC[C@]4(C)[C@H]3CC[C@@]21C", "target": "Protein smoothened (Smo, Mus musculus, UniProt P56726)", "test": "Hh pathway activation, agonist, item: Gli1 mRNA", "test system": "Smo-null cells rescued with Smo", "how to read": "baseline: saturating SAG", "EC50": "26300 nM"}
{"Substance": "CSCC[C@H](NC(=O)[C@H](CO)NC(=O)[C@H](Cc1ccc(O)cc1)NC(=O)[C@H](C)NC(C)=O)C(=O)N[C@@H](CCC(=O)O)C(=O)N[C@@H](Cc1c[nH]cn1)C(=O)N[C@@H](Cc1ccccc1)C(=O)N[C@@H](CCCNC(=N)N)C(=O)N[C@@H](Cc1c[nH]c2ccccc12)C(=O)NCC(=O)N[C@@H](CCCCN)C(=O)N1CCC[C@H]1C(=O)N[C@H](C(N)=O)C(C)C", "target": "Melanocortin receptor 5", "EC50": "46 ± 39 nM"}
{"Substance": "O=C(COc1ccc(C2=[N+]3C(=Cc4ccc(-c5cccs5)n4[B-]3(F)F)C=C2)cc1)NCCCCCNC(=O)[C@H]1O[C@H](OP(=O)(O)OP(=O)(O)OCC2OC(n3ccc(=O)[nH]c3=O)C(O)C2O)[C@H](O)[C@@H](O)[C@@H]1O (some centres unmarked)", "target": "P2Y purinoceptor 14 (P2RY14, Homo sapiens, UniProt Q15391)", "test": "cAMP inhibition, agonist", "test system": "CHO expressing human P2Y14", "setting": "15 min, 37 °C, with: forskolin", "EC50": "0.96 nM"}
{"Substance": "O=C(NN=Cc1ccccc1)c1ccccc1O", "target": "ESRRG", "test": "reporter gene, agonist, luciferase reporter", "test system": "HEK293 transfected", "EC50": "468 nM"}
{"Substance": "B1 (R-spondin 1)", "target": "human LGR5", "test": "binding, ELISA", "setting": "2 h", "EC50": "~0.04 nM"}
{"Substance": "CC1=NN(CC(=O)Nc2ccc(Br)cc2)C(=O)CC1c1ccccc1 (racemic)", "target": "Formyl peptide receptor 2 (Mus musculus, UniProt O88536)", "test": "calcium signal, agonist", "EC50": "3500 nM"}
{"Substance": "Nc1ccc(I)cc1-c1nc2ccccc2n(Cc2ccccc2[N+](=O)[O-])c1=O", "target": "CFTR", "test": "ion flux, activator, fluorescence", "EC50": "> 25000 nM"}
{"Substance": "O=C(Nc1cccc(C(F)(F)F)c1)c1ccccc1NC(=O)C1CCCCC1", "target": "Relaxin receptor 1 (RXFP1, Homo sapiens, UniProt Q9HBX9)", "test": "cAMP, agonist, TR-FRET", "EC50": "3700 nM"}
{"Substance": "CCCC[C@H](NC(=O)[C@H](CO)NC(=O)[C@H](Cc1ccc(O)cc1)NC(=O)[C@H](CO)NC(C)=O)C(=O)N[C@@H](CCC(=O)O)C(=O)N[C@@H](Cc1c[nH]cn1)C(=O)N[C@H](Cc1ccccc1)C(=O)N[C@@H](CCCNC(=N)N)C(=O)N[C@@H](Cc1c[nH]c2ccccc12)C(=O)NCC(=O)N[C@@H](C)C(=O)N1CCC[C@H]1C(=O)N[C@H](C(N)=O)C(C)C", "target": "Melanocortin receptor 5", "EC50": "0.094 ± 0.005 nM"}
{"Substance": "heparin sodium", "target": "Small ribosomal subunit protein uS2, residues 2-220 (Rpsa, Mus musculus, UniProt P14206)", "test": "laminin binding, enhancer, indirect ELISA", "EC50": "35 ± 4 nM"}
{"Substance": "CCCC[C@H](NC(=O)[C@H](CO)NC(=O)[C@H](Cc1ccc(O)cc1)NC(=O)[C@H](C)NC(C)=O)C(=O)N[C@@H](CCC(=O)O)C(=O)N[C@@H](Cc1c[nH]cn1)C(=O)N[C@H](Cc1ccccc1)C(=O)N[C@@H](CCCNC(=N)N)C(=O)N[C@@H](Cc1c[nH]c2ccccc12)C(=O)NCC(=O)N[C@@H](CCCCN)C(=O)N1CCC[C@H]1C(=O)N[C@H](C(N)=O)C(C)C", "target": "Melanocortin receptor 5", "EC50": "0.095 ± 0.01 nM"}
{"Substance": "COc1ccc(Cl)cc1Cn1nc(-c2sc(NC(=O)C(C)(C)C)nc2C)cc1C(=O)NCCO", "target": "CFTR (Homo sapiens, UniProt P13569, del508-508)", "test": "iodide influx, corrector, YFP quenching", "test system": "FRT expressing ΔF508-CFTR and YFP-H148Q/I152L", "setting": "with: forskolin 20 µM + genistein 50 µM", "EC50": "3000 nM"}
{"Substance": "CSCC[C@H](NC(=O)[C@H](CCC(=O)O)NC(=O)[C@@H]1CCCN1C(=O)[C@@H](NC(=O)[C@@H]1CCCN1)[C@@H](C)O)C(=O)N[C@@H](CCCNC(=N)N)C(=O)N[C@@H](CCC(=O)O)C(=O)N[C@@H](CCCCN)C(=O)N[C@@H](CC(C)C)C(=O)N[C@H]1CSSC[C@@H]2NC(=O)[C@@H](NC(=O)[C@H](Cc3ccc(O)cc3)NC(=O)[C@H](CCCNC(=N)N)NC(=O)[C@H](C)NC(=O)[C@@H]3CCCN3C(=O)[C@H](CC(N)=O)NC(=O)[C@@H](NC(=O)[C@H](C)NC(=O)[C@H](C)NC(=O)[C@H](C)N)[C@@H](C)O)CSSC[C@H](NC(=O)CNC(=O)[C@H](CO)NC(=O)[C@H](CC(C)C)NC2=O)C(=O)N[C@@H]([C@@H](C)O)C(=O)N[C@@H](CCC(N)=O)C(=O)N[C@@H](CCC(N)=O)C(=O)N[C@@H](CC(=O)O)C(=O)N[C@@H](CC(C)C)C(=O)N[C@@H](CC(C)C)C(=O)N[C@@H]([C@@H](C)O)C(=O)N[C@@H](CC(C)C)C(=O)N[C@H](C(=O)N2CCC[C@H]2C(=O)N[C@@H](Cc2ccc(O)cc2)C(=O)O)CSSC[C@@H](C(=O)NCC(=O)NCC(=O)N2CCC[C@H]2C(=O)N[C@@H](CCCNC(=N)N)C(=O)N[C@@H](Cc2c[nH]c3ccccc23)C(=O)N[C@@H](CO)C(=O)N[C@H](C(=O)N[C@@H](CCC(=O)O)C(=O)N[C@@H](C)C(=O)O)[C@@H](C)O)NC(=O)[C@H](C(C)C)NC(=O)[C@H](CCCNC(=N)N)NC(=O)[C@H](C(C)C)NC(=O)[C@H](CC(C)C)NC(=O)[C@H](C)NC(=O)[C@H](CCCNC(=N)N)NC(=O)[C@H](C(C)C)NC(=O)[C@H](Cc2ccccc2)NC(=O)[C@H](Cc2c[nH]cn2)NC(=O)[C@H](Cc2c[nH]cn2)NC(=O)CNC1=O", "target": "Relaxin receptor 2 (RXFP2, Homo sapiens, UniProt Q8WXD0)", "test": "cAMP production, agonist, CAMYEL BRET", "test system": "HEK293 transfected", "setting": "45 min, 37 °C", "EC50": "0.263 nM"}
{"Substance": "O=C(NN=Cc1ccc2ccccc2n1)c1ccccc1", "target": "ESRRG", "test": "reporter gene, agonist, luciferase reporter", "test system": "HEK293 transfected", "EC50": "836 nM"}
{"Substance": "Nc1ncnc2c1ncn2[C@@H]1O[C@H](COP(=O)(O)OP(=O)(O)OP(=O)(O)O)[C@@H](OC(=O)c2ccc(C(=O)c3ccccc3)cc2)[C@H]1O", "target": "P2X purinoceptor 7 (P2rx7, Mus musculus, UniProt Q9Z1M0)", "test": "agonist", "test system": "mouse cells", "EC50": "197000 ± 5100 nM"}
{"Substance": "CC(=O)N[C@@H](CO)C(=O)N[C@@H](Cc1ccc(O)cc1)C(=O)N[C@@H](CO)C(=O)N[C@@H](C)C(=O)N[C@@H](CCC(=O)O)C(=O)N[C@@H](Cc1c[nH]cn1)C(=O)N[C@@H](Cc1ccccc1)C(=O)N[C@@H](CCCNC(=N)N)C(=O)N[C@@H](Cc1c[nH]c2ccccc12)C(=O)NCC(=O)N[C@@H](CCCCN)C(=O)N1CCC[C@H]1C(=O)N[C@H](C(N)=O)C(C)C", "target": "Melanocortin receptor 5", "EC50": "60 ± 55 nM"}
{"note": "A few entries again:"}
{"Substance": "heparin sodium", "target": "Small ribosomal subunit protein uS2, residues 2-220 (Rpsa, Mus musculus, UniProt P14206)", "test": "laminin binding, enhancer, indirect ELISA", "EC50": "35 ± 4 nM"}
{"Substance": "CCCC[C@H](NC(=O)[C@H](CO)NC(=O)[C@H](Cc1ccc(O)cc1)NC(=O)[C@H](C)NC(C)=O)C(=O)N[C@@H](CCC(=O)O)C(=O)N[C@@H](Cc1c[nH]cn1)C(=O)N[C@H](Cc1ccccc1)C(=O)N[C@@H](CCCNC(=N)N)C(=O)N[C@@H](Cc1c[nH]c2ccccc12)C(=O)NCC(=O)N[C@@H](CCCCN)C(=O)N1CCC[C@H]1C(=O)N[C@H](C(N)=O)C(C)C", "target": "Melanocortin receptor 5", "EC50": "0.095 ± 0.01 nM"}
